Measurements from different studies.
Compare with care: the assays were run in different laboratories.

For `Nc1ncc(-c2cc(-c3cnn(CC(F)(F)F)c3)ncc2F)nc1C(=O)NC1CNCC(F)C1` (centres unmarked), the remaining binding was 59% (CSNK2A2; KINOMEscan; 1 µM; relative to: DMSO control).
The fold regulation of `CCN(CC)CC(=O)Nc1cccc(-n2cc(-c3ccc4ccc(-c5cn(-c6cccc(NC(=O)CN(CC)CC)c6)nn5)cc4c3)nn2)c1` is reported as 3.4 (RCC4; PCR angiogenesis array, measured: IGF1; 5 x IC50, 6 h, normoxia; relative to: untreated).
For `C=CC(=O)Nc1cccc(Cn2ncc3cnc(Nc4cnn(CCOC)c4)nc32)c1`, “percent of control” read 100% (PRKCH human; binding, KINOMEscan; 100 nM; lower = stronger binding).
Under “log2 fold change”, `COC1CN([C@H]2CC[C@H]([C@@]3(C)Oc4c(Cl)cc(C(=O)NCc5c(SC)cc(C)[nH]c5=O)c(C)c4O3)CC2)C1` is recorded as 6.11 (RNA-seq, measured: FHIP1A mouse homolog; mouse, HT-1376 xenograft, whole blood; dose not given; relative to: vehicle).
Under “log2 fold change”, `CN1CCCNC(=O)c2cccc(c2)C(=O)NCCCN(C)CCCNc2cccc3c2C(=O)c2cccc(c2C3=O)NCCC1` is recorded as -0.809 (SAS; RNA-Seq, measured: SLC25A46 mRNA; 1 µM, 6 h; relative to: untreated cells).
`C=C(NC(=O)c1csc(-c2nc3c(cc2O)-c2nc(cs2)C(=O)NC(C(C)O)C(=O)NC(=C(C)OC)c2nc(cs2)C(=O)NC2c4nc(cs4)C(=O)NC(COC(=O)c4c5c6c(cccc6n4O)COC(=O)C(OC4CC(C)(O)C(N(C)C)C(C)O4)C2OC5)c2nc-3cs2)n1)C(N)=O` (centres unmarked): “lung bacterial load” 4.03 log CFU/g (Streptococcus pneumoniae; -4, immunocompromised mice, lung infection; 8 mg/kg/day, twice daily, 24 h post-dose).
`CNS(=O)(=O)Nc1nccc(Cc2c(C)c3ccc(Oc4ncccc4F)cc3oc2=O)c1F` has an IC50 of over 1000 nM (IM95; cell viability; 7 days).
Under “log2 fold change”, `Cc1ncsc1-c1ccc(C(C)NC(=O)C2CC(O)CN2C(=O)C(NC(=O)CCCCCCCCCCN2CCCC(Nc3ncc(Cl)c(Nc4ccccc4S(=O)(=O)C(C)C)n3)C2)C(C)(C)C)cc1` (centres unmarked) is recorded as -2.19 (22Rv1; RNA-seq, measured: ZNF786 mRNA; concentration not given; relative to: DMSO).

For quick reference, copied from above:
Under “log2 fold change”, `CN1CCCNC(=O)c2cccc(c2)C(=O)NCCCN(C)CCCNc2cccc3c2C(=O)c2cccc(c2C3=O)NCCC1` is recorded as -0.809 (SAS; RNA-Seq, measured: SLC25A46 mRNA; 1 µM, 6 h; relative to: untreated cells).
